Experimental data from different studies.
Each line is one published result; not all experiments were run side by side. Several values in a cell are separate wells, animals, samples, runs or records. ± marks the error that the study gave.

Structure (SMILES) | target or system | test | test system | conditions | scale | measurement | value
C#Cc1cc(-c2cc(Nc3nc(N[C@@H](C)c4ccc(F)cn4)ncc3Cl)n[nH]2)ccc1C=O | Ephrin type-B receptor 1 (EPHB1, Homo sapiens, UniProt P54762) | enzyme activity, inhibitor |  | 0.2 µM |  | inhibition | 10.5%
CCC1(O)CCCN(C(=O)c2ccc(-c3ccc(F)c(NC(=O)CCl)c3)cc2)C1 (stereo not drawn) | DNA dC->dU-editing enzyme APOBEC-3A (Homo sapiens, UniProt P31941) | covalent modifier, intact protein mass spectrometry, item: adduct +26309 Da |  | 25 µM, 1 h, 1-fold molar excess |  | protein adduct | 30%
N[C@@H](CCSC[C@H](N)C(=O)O)C(=O)O | Uncharacterized protein (Thermobifida fusca, UniProt Q47ST9) | substrate inhibition |  |  |  | Ki | 45 mM
O=c1nc(SCc2cc(F)cc(C(F)(F)F)c2)nc(SCc2ccc3nc(Cl)ccc3c2)[nH]1 | DNA topoisomerase 2-alpha (TOP2A, Homo sapiens, UniProt P11388) | DNA cleavage |  | 7.8 µM, replicate 1 |  | linear DNA | 0%
Nc1nc2c(ncn2[C@@H]2O[C@H](COP(=O)(O)O)[C@@H](O)[C@H]2O)c(=O)[nH]1 | GUK1 (Homo sapiens, UniProt Q16774, T83A) | enzyme activity, NADH-coupled |  | 2000 µM |  | reaction rate | 33.7 s⁻¹ and 30.7 s⁻¹ and 32.5 s⁻¹
CN(CCC#N)C(=O)c1ccc([C@H]2[C@@H](F)[C@@H](F)C[C@@H](F)[C@H]2F)cc1 |  | hepatocyte stability | cryopreserved rat hepatocytes | 1 µM |  | hepatic clearance | 20 mL/min/kg
O=C(O)C1CCCNC1 (stereo not drawn) | Sodium- and chloride-dependent taurine transporter (SLC6A6, Homo sapiens, UniProt P31641, Y138A) | binding, microscale thermophoresis |  | 500 µM, room temperature, added: 50 nM labelled protein | higher = more binding | normalised MST signal | 0.961
C=CC(=O)N1CCC(COCC(=O)N2CCN(c3nc(-c4cnc(N)nc4C(F)F)nc(N4CCOC[C@@H]4C)n3)CC2)CC1 | Phosphatidylinositol 4,5-bisphosphate 3-kinase catalytic subunit gamma isoform (PIK3CG, Homo sapiens, UniProt P48736) | KINOMEscan |  | 1 µM |  | remaining binding | 0.55%
CC[C@H](C)[C@H](NC(=O)[C@H](Cc1ccccc1)NC(=O)[C@H](CCC(=O)O)NC(=O)[C@H](CCCNC(=N)N)NC(=O)[C@H](C)NC(=O)[C@H](C)NC(=O)[C@H](CCC(N)=O)NC(=O)[C@H](CCC(=O)O)NC(=O)[C@H](CCC(=O)O)NC(=O)[C@H](CC(C)C)NC(=O)[C@H](Cc1ccc(O)cc1)NC(=O)[C@H](CO)NC(=O)[C@H](CO)NC(=O)[C@@H](NC(=O)[C@H](CC(=O)O)NC(=O)[C@H](CO)NC(=O)[C@@H](NC(=O)[C@H](Cc1ccccc1)NC(=O)[C@@H](NC(=O)CNC(=O)[C@H](CCC(=O)O)NC(=O)[C@H](C)NC(=O)CCc1cnc[nH]1)[C@@H](C)O)[C@@H](C)O)C(C)C)C(=O)N[C@@H](C)C(=O)N[C@@H](Cc1c[nH]c2ccccc12)C(=O)N[C@@H](CC(C)C)C(=O)N[C@H](C(=O)N[C@@H](CCCCNc1c(NCCCCCN(O)C(=O)CCC(=O)NCCCCCN(O)C(=O)CCC(=O)NCCCCCN(O)C(C)=O)c(=O)c1=O)C(=O)NCC(=O)N[C@@H](CCCNC(=N)N)C(=O)N[C@@H](CCCCNc1c(NCCCCCN(O)C(=O)CCC(=O)NCCCCCN(O)C(=O)CCC(=O)NCCCCCN(O)C(C)=O)c(=O)c1=O)C(=O)NCC(=O)NCC(=O)N[C@@H](CO)C(=O)N[C@@H](CCCCNC(=O)COCCOCCNC(=O)COCCOCCNC(=O)CC[C@H](NC(=O)CCCCCCCCCCCCCCCCC(=O)O)C(=O)O)C(=O)O)C(C)C | Glucagon-like peptide 1 receptor (GLP1R, Homo sapiens, UniProt P43220) | agonist, CRE luciferase reporter | BHK cells | metal-free DFO conjugate, added: 0% HSA | baseline: parent peptide | fold potency loss | 8.4
Cc1cccc(N2CC(C(=O)O)CC2=O)c1 (stereo not drawn) | Transcription intermediary factor 1-alpha, PHD-bromodomain (TRIM24, Homo sapiens, UniProt O15164) | binding, affinity selection mass spectrometry |  |  | baseline: other proteins in batch | fold enrichment | 1.2
CN(C)CCC(=O)Nc1ccc([C@H]2[C@@H](F)[C@@H](F)C[C@@H](F)[C@H]2F)cc1 |  | liver microsome stability | cynomolgus liver microsomes | 1 µM |  | hepatic clearance | 6.3 mL/min/kg
COc1cccc(-n2nc3c4cc(Cl)ccc4[nH]cc-3c2=O)c1 | Gamma-aminobutyric acid receptor subunit alpha-6/beta-3, with delta subunit (Gabra6/Gabrb3, Rattus norvegicus, UniProt P30191+P63079) | ion current, modulator, two-electrode voltage clamp |  | 100 nM, α6β3δ receptor, added: GABA EC3-10 |  | efficacy | 102 ± 3.8%

Excerpt of the above:
Structure (SMILES) | target or system | test | test system | conditions | scale | measurement | value
C#Cc1cc(-c2cc(Nc3nc(N[C@@H](C)c4ccc(F)cn4)ncc3Cl)n[nH]2)ccc1C=O | Ephrin type-B receptor 1 (EPHB1, Homo sapiens, UniProt P54762) | enzyme activity, inhibitor |  | 0.2 µM |  | inhibition | 10.5%
CCC1(O)CCCN(C(=O)c2ccc(-c3ccc(F)c(NC(=O)CCl)c3)cc2)C1 (stereo not drawn) | DNA dC->dU-editing enzyme APOBEC-3A (Homo sapiens, UniProt P31941) | covalent modifier, intact protein mass spectrometry, item: adduct +26309 Da |  | 25 µM, 1 h, 1-fold molar excess |  | protein adduct | 30%
